Measured values pooled from the literature.
Compare with care: the assays were run in different laboratories. ± marks the error that the study gave.

CCCC[C@H](NC(C)=O)C(=O)N[C@H]1CCC(=O)NC[C@@H](C(=O)N[C@@H](Cc2c[nH]c3ccccc23)C(N)=O)NC(=O)[C@H](CCCNC(=N)N)NC(=O)[C@@H](Cc2ccccc2)NC(=O)[C@H](Cc2c[nH]cn2)NC1=O — Cmax (beagle dog, male, plasma; subcutaneous, 40.0 mg/kg daily, day 1): 633 ng/mL
O=C(CCCCCCC(=O)Nc1ccccc1)NO — Cmax (patients, serum; oral, 1000 mg, cycle 1 day 2, together with: flavopiridol 30+30 mg/m2): 12.7 µM
CNC(=O)c1ccc(-c2cnc3ncc(Cc4ccc5ncccc5c4)n3n2)cc1F — Cmax (human moderate hepatic impairment; oral, 200 mg single dose, adjusted geometric mean): 1440 ng/mL
CC(C)NC[C@@H](C(=O)N1CCN(c2ncnc3c2[C@H](C)C[C@H]3O)CC1)c1ccc(Cl)cc1 — Cmax (human, Mild hepatic function, plasma; oral, 100 mg single dose, NCI classification, geometric mean): 63.3 ng/mL
O=C(O)C[C@H](O)C[C@H](O)/C=C/c1c(C2CC2)nc2ccccc2c1-c1ccc(F)cc1 — Cmax (male Sprague Dawley rat, control, plasma; oral, 2.5 mg/kg, geometric mean, together with: vehicle): 0.8 µM
Cc1cc(Nc2cc3ncccc3c(N[C@@H]3C[C@H]4CC[C@@H](C3)N4CCC#N)n2)n[nH]1 — Cmax (beagle dog, female, plasma; oral, 30 mg/kg/day, last day of 13 weeks): 46.9 ng/mL
CO[C@H]1C[C@@H]2CC[C@@H](C)[C@@](O)(O2)C(=O)C(=O)N2CCCC[C@H]2C(=O)O[C@H]([C@H](C)C[C@@H]2CC[C@@H](O)[C@H](OC)C2)CC(=O)[C@H](C)/C=C(\C)[C@@H](O)[C@@H](OC)C(=O)[C@H](C)C[C@H](C)/C=C/C=C/C=C/1C — Cmax (human, whole blood; oral, 30 mg, compound alone): 43.5 ng/mL
CC1=C2C[C@H]3[C@@H](CC[C@@H]4C[C@H](NS(C)(=O)=O)CC[C@@]43C)[C@@H]2CC[C@@]2(C1)O[C@@H]1C[C@H](C)CN[C@H]1[C@H]2C — Cmax (patients, plasma; oral, 160 mg daily, day 22, cycle 1): 450 ng/mL
C=CC(N)CCC(=O)O (centres unmarked) — Cmax (male Sprague-Dawley rat, plasma; oral, 1.0 mg/kg, formulation 2, together with: infant formula 1500 mg/kg): 965 ± 64 ng/mL
CCN1CCN(c2ccc(Nc3cc(N(C)C(=O)Nc4c(Cl)c(OC)cc(OC)c4Cl)ncn3)cc2)CC1 — Cmax (LC-MS/MS; juvenile male Crl:WI(Han) rats, plasma; oral gavage, 1.0 mg/kg/day, postnatal day 17): 34.1 ng/mL
CS(=O)(=O)c1ccc(-c2cnc(N)c(-c3ccc(C(F)(F)F)nc3)c2)cc1 — Cmax (Sprague-Dawley rat, pregnant female, plasma; oral, 30 mg/kg/day, gestation day 17): 8610 ng/mL
CC(C)=CCC[C@](C)(O[C@@H]1O[C@H](CO)[C@@H](O)[C@H](O)[C@H]1O)[C@H]1CC[C@]2(C)[C@@H]1[C@H](O)C[C@@H]1[C@@]3(C)CC[C@H](O[C@@H]4O[C@H](CO)[C@@H](O)[C@H](O)[C@H]4O[C@@H]4O[C@H](CO)[C@@H](O)[C@H](O)[C@H]4O)C(C)(C)[C@@H]3CC[C@]12C — Cmax (Sprague-Dawley rat, plasma; oral, 200 mg/kg ginseng extract, control diet 2 weeks before dosing): 690 ± 473 ng/mL
CNCc1ccc(-c2[nH]c3cc(F)cc4c3c2CCNC4=O)cc1 — Cmax (human, fed high-fat meal, plasma; oral, 600 mg, single dose, arithmetic mean): 959 ng/mL
O=c1[nH]c(=O)c(Cc2cccc(C(F)(F)F)c2)c([C@H]2CC[C@H](c3ccccc3)CC2)[nH]1 — Cmax (human, plasma; oral, 150 mg once daily, day 14, geometric mean): 169 ng/mL
